Measured values from different studies.
Lines come from different studies, so protocols differ. ± gives the spread as reported.

FC(F)(F)c1ccnc(-c2cc(C(F)(F)F)ccn2)c1.FC(F)(F)c1ccnc(-c2cc(C(F)(F)F)ccn2)c1.[Cl-].[Cl-].[Ru+2].c1csc(-c2ccc(-c3ccc(-c4ccc(-c5nc6c7cccnc7c7ncccc7c6[nH]5)s4)s3)s2)c1 — EC50 (SK-MEL-28; cell viability, resazurin; visible light, normoxia, lowest replicate): 0.009 µM
CC(=O)OC1CCC(OC(C)=O)O1 (racemic) — EC50 (human T-lymphocyte; cell growth or viability, MTT; 48 h): > 10 µM
CC(=O)OC[C@H]1O[C@@H]([Se][Se][C@@H]2O[C@H](COC(C)=O)[C@@H](OC(C)=O)[C@H](OC(C)=O)[C@H]2OC(C)=O)[C@H](OC(C)=O)[C@@H](OC(C)=O)[C@@H]1OC(C)=O — EC50 (J774 mouse macrophages; viability; 24 h): 4.9 ± 0.45 µM
CC(C)C[C@H](NC(=O)[C@H](CO)NC(=O)[C@H](Cc1ccc(O)cc1)NC(=O)CNC(=O)[C@H](CCCNC(=N)N)NC(=O)[C@H](Cc1ccc(O)cc1)NC(=O)[C@H](CC(N)=O)NC(=O)[C@@H](N)CC(=O)O)C(=O)NCC(=O)N[C@@H](CC(N)=O)C(N)=O — EC50 (2D12.1 T cell hybridoma; T cell activation, agonist, measured: IL-2; 24 h, NOD mouse spleen cells): > 10 µM
Cc1ccc(CC(=O)c2c(O)c(O)cc3c(O)c(-c4c(C)cc5c(C(=O)Cc6ccc(C)cc6)c(O)c(O)cc5c4O)c(C)cc23)cc1 — EC50 (H460; ATP-lite viability; 72 h): 0.82 µM
FC(F)(F)c1ccnc(-c2cc(C(F)(F)F)ccn2)c1.FC(F)(F)c1ccnc(-c2cc(C(F)(F)F)ccn2)c1.[Cl-].[Cl-].[Ru+2].c1csc(-c2ccc(-c3ccc(-c4nc5c6cccnc6c6ncccc6c5[nH]4)s3)s2)c1 — EC50 (SK-MEL-28; cell viability, resazurin; green light, hypoxia 1% O2): 0.3 to 1 µM
CC(C)C[C@H](NC(=O)CN)C(=O)N[C@@H](CC(=O)O)C(=O)N[C@@H](CC(N)=O)C(=O)N[C@@H](Cc1ccc(O)cc1)C(=O)N[C@@H](CCCNC(=N)N)C(=O)NCC(=O)N[C@@H](Cc1ccc(O)cc1)C(=O)N[C@@H](CO)C(=O)N[C@@H](CC(C)C)C(=O)NCC(=O)N[C@@H](CC(N)=O)C(N)=O — EC50 (2D12.1 T cell hybridoma; T cell activation, agonist, measured: IL-2; 24 h, NOD mouse spleen cells): > 10 µM
N=C(N)NCCC[C@H](N)C(=O)N1CCC[C@H]1C(=O)N[C@@H](CCCCN)C(=O)N1CCC[C@H]1C(=O)N[C@@H](CCC(N)=O)C(=O)N[C@@H](CCC(N)=O)C(=O)N[C@@H](Cc1ccccc1)C(=O)N[C@@H](Cc1ccccc1)C(=O)NCC(=O)O — EC50 (LAD2 human mast cells; CCL2 release, activator, measured: CCL2; 24 h, 37 °C): 11.8 µM
[Ru+2].c1ccc(-c2ccc3c(n2)c2ncccc2c2nc4cc5ccccc5cc4nc32)nc1.c1ccc(-c2ccc3c(n2)c2ncccc2c2nc4cc5ccccc5cc4nc32)nc1 — EC50 (M2 murine macrophages; cell viability, MTT; 1 h, dark): > 25 µM
C(=C/c1ccccc1)/c1ccccc1 — EC50 (CCRF-CEM; apoptosis, Hoechst staining; 24 h): > 500 µM
Cc1ccc2c(n1)c1nc(C)ccc1c1nc3cc4ccccc4cc3nc21.[Ru+2].c1ccc(-c2cccc(-c3ccccn3)n2)nc1.c1ccncc1 — EC50 (M2 murine macrophages; cell viability, MTT; 1 h, dark): > 25 µM
O=C(N[C@@H](Cc1coc2ccccc12)B(O)O)[C@@H]1C[C@H]2CC[C@@H]1O2 — EC50 (MM1.S; measured: ubiquitinated proteins; 6 h; increase): 1.98 µM
c1ccc(CN2CCOCCOCCN(CCCCCCCCCCCCCCN3CCOCCOCCN(CCCCCCCCCCCCCCN4CCOCCOCCN(Cc5ccccc5)CCOCCOCC4)CCOCCOCC3)CCOCCOCC2)cc1 — EC50 (human Hepatocyte; cell growth or viability; 72 h): 2.1 µM

Excerpt of the above:
c1ccc(CN2CCOCCOCCN(CCCCCCCCCCCCCCN3CCOCCOCCN(CCCCCCCCCCCCCCN4CCOCCOCCN(Cc5ccccc5)CCOCCOCC4)CCOCCOCC3)CCOCCOCC2)cc1 — EC50 (human Hepatocyte; cell growth or viability; 72 h): 2.1 µM
CC(=O)OC[C@H]1O[C@@H]([Se][Se][C@@H]2O[C@H](COC(C)=O)[C@@H](OC(C)=O)[C@H](OC(C)=O)[C@H]2OC(C)=O)[C@H](OC(C)=O)[C@@H](OC(C)=O)[C@@H]1OC(C)=O — EC50 (J774 mouse macrophages; viability; 24 h): 4.9 ± 0.45 µM
